# Earlier results, collected from citations in different studies.
# Each line is one published result; not all experiments were run side by side. ± marks the error that the study gave.
SMILES,cell line,observed,action,method,measured,with,IC50 [µM]
CC(C)=CCC[C@@H](C)[C@H]1C[C@H](O)[C@@]2(C)C3=CC[C@H]4C(C)(C)[C@@H](O)CC[C@]4(C)C3=CC[C@]12C,NCI-H187,cell growth,,,,,45.5
Oc1cccc(-c2cccc(O)n2)n1.[Cl-].[Cl-].[Ru+2].c1cnc2c(c1)ccc1cccnc12.c1cnc2c(c1)ccc1cccnc12,MCF-10A,cell viability,,,,"blue light 450 nm, 1 h",13
C[C@@H]1COCCN1c1nc(-c2cnc(N)nc2)nc2c1C[C@@H]1COCCN21,A2058,,,,phospho-S6 Ser235/236,,0.055 ± 0.0055
CCCCCC(=O)N[C@H](CC(=O)N(CC)CC)C(=O)N[C@@H](Cc1ccc(F)cc1)C(=O)N[C@@H](Cc1ccc(F)cc1F)C(=O)[C@@]1(C)CO1,mammalian cells,cell viability,,,,,24.3 ± 2.3
C=CC(=O)N(c1cccc2ccccc12)S(=O)(=O)c1ccc(OC)cc1,HCT-116,cell growth,,,,,3.04
CC[C@@H](C)[C@H]1NC(=O)[C@@H]([C@H](C)O)NC(=O)[C@@H](Cc2c[nH]cn2)NC(=O)CNC(=O)[C@@H](CCCNC(=N)N)NC(=O)CNC(=O)[C@@H](Cc2ccccc2)NC1=O,endothelial cells,VEGF-induced proliferation,,,,VEGF,0.00015
CCC1=C(O)c2c(oc(-c3ccc4cc(OC)ccc4c3)cc2=O)C(CC)(CC)C1=O,SK-BR-3,cell growth,,SRB,,,8.37
Cc1ccc(C2C3=C(COC3=O)NC3=C2C(=O)c2ccccc2C3=O)cc1 (centres unmarked),KB cells,cell growth,,,,,> 2.5
c1ccc(Cn2cc(COc3ccc(-c4nc5ccc(C6=NCCN6)cc5[nH]4)cc3)nn2)cc1,A549,,,,,,0.07
CCNc1cc2c(cc1C)C1(c3cc(C)c(NCC)cc3O2)c2ccccc2C(=O)N1N=Cc1ccnc(-c2cc(C)ccn2)c1.Cc1c(C)c(-c2ccc(-c3ccccc3)cc2)[c-](C)c1C.F[P-](F)(F)(F)(F)F.[Cl-].[Ir+3],HeLa cancer cells,,,,,,3.6 ± 0.8
CC(=O)OC1CC2C3C(OC(C)=O)C4OC45C(O)C=CC(=O)C5(C)C3CCC2(C)C1C(C)(O)C1CC(C)=C(C)C(=O)O1 (centres unmarked),BC1,cell growth,,,,,0.38
COc1ccc([C@H]2Oc3ccccc3C(=O)[C@]2(Cl)[N+](=O)[O-])cc1,L1210,cell growth,,,,,9
Nc1cc(C(F)F)c(-c2nc(N3CCOCC3)nc(N3CCOCC3)n2)cn1,A2058,,inhibitor,,PKB Ser473 phosphorylation,,0.102
CC1=C(COC2OC(CO)C(OC3OC(C)C(O)C(O)C3O)C(O)C2O)C(=O)OC(C(C)C2CCC3C4CC5OC56C(O)C=CC(=O)C6(C)C4CCC23C)C1 (centres unmarked),Hs-578T,cell growth,,,,,11.1
O=C1OCC2=C1C(c1cccc(Br)c1)C1=C(N2)C(=O)c2ccccc2C1=O (centres unmarked),MCF7 cells,cell growth,,,,,> 2.5
CC1=C(CO)C(=O)O[C@@H]([C@@H](C)[C@H]2CC[C@H]3[C@@H]4C[C@H]5O[C@]56[C@@H](O)C=CC(=O)[C@]6(C)[C@H]4CC[C@]23C)C1,L5178Y,cell growth,,,,,0.64
O=C1NCC(Cc2ccccc2)N(CC2CCCN2CC(CC2CCCCC2)N2CC(Cc3ccc(O)cc3)N(CCc3ccccc3)C(=O)C2=O)C1=O (centres unmarked),M14,viability,,,,,4 ± 0.3
Cc1ccc2nc(SCc3cn(-c4cccc(C(=O)O)c4)nn3)n(Cc3ccccc3)c(=O)c2c1,HeLa,,,,,,7.55
CCC1=C(O)c2c(oc(-c3cccc4ccccc34)cc2=O)C(CC)(CC)C1=O,KB,cell growth,,SRB,,,1.55
CC(C)N(P(c1ccccc1)c1ccccc1)P(c1ccccc1)c1ccccc1.Cc1ccc(C(C)C)cc1.F[B-](F)(F)F.[Cl][Ru+],A2780R platinum-resistant ovarian cancer,cell growth,,,,,2.2

# A few entries again:
SMILES,cell line,observed,action,method,measured,with,IC50 [µM]
Cc1ccc2nc(SCc3cn(-c4cccc(C(=O)O)c4)nn3)n(Cc3ccccc3)c(=O)c2c1,HeLa,,,,,,7.55
CCC1=C(O)c2c(oc(-c3cccc4ccccc34)cc2=O)C(CC)(CC)C1=O,KB,cell growth,,SRB,,,1.55
